Results pooled from the literature.
± marks the error that the study gave.

| Compound | assay | test system | conditions | half-life |
| --- | --- | --- | --- | --- |
| CCCCCCC[C@@H](O)CC(=O)N[C@H](CCN)C(=O)N[C@H]1CCNC(=O)[C@H](CC(C)C)NC(=O)[C@H](CCN)NC(=O)[C@H](CCN)NC(=O)[C@H](CC(C)C)NC(=O)[C@@H](Cc2ccccc2)NC(=O)[C@H](CCN)NC1=O | – | mouse | intravenous, 10 mg/kg | 6.6 h |
| COCc1nc(C(F)(F)F)[nH]c1-c1cc(C(=O)N2CC(c3ccc(C#N)cc3)C2)c(C)cc1C | – | mouse | oral, 10 mg/kg | 1.94 h |
| C=CC(=O)NCc1ccc(-n2nc3c(=O)[nH]nc(N)c3c2-c2oc3ccc(C)cc3c2C)cc1 | – | BALB/c nude mouse, whole blood | 1 µM, 37 °C | 72.9 h |
| CCCCCCCCCCCCCCCC(=O)NCCOCCOCCOCCOCCOCCOCCOCCOCCC(=O)NCCCC[C@H](NC(=O)CNC(=O)[C@@H]1CSSC[C@H](N)C(=O)N[C@@H](Cc2ccc(O)cc2)C(=O)N[C@@H]([C@@H](C)CC)C(=O)N[C@@H](CCC(N)=O)C(=O)N[C@@H](CC(N)=O)C(=O)N1)C(=O)NCC(N)=O | – | male C57BL/6J mouse, plasma | subcutaneous, dose not given | 3.2 h |
| COc1ccc(-c2ccn(CC[C@](C)(C(=O)NO)S(C)(=O)=O)c(=O)c2)c(F)c1 | – | CF-1 mouse, female | subcutaneous, 18.75 mg/kg | 0.6 ± 0.03 h |
| O=C(Cc1ccc(-c2ccc(OCCN3CCOCC3)cc2)cn1)NCc1ccc(F)cc1 | – | ICR mouse | intravenous, 2 mg/kg | 1.69 ± 1.09 h |
| Cc1cc2c(c(=O)o1)C=C1CCC(C(C)CNCc3ccc(O)cc3)CC1O2 (stereo not drawn) | – | mouse, plasma | oral, dose not given | 2.67 h |
| CCCCCCCCCCCCCCCC(=O)OCC(CSC[C@H](N)C(=O)NCC(=O)N[C@@H](CC(=O)O)C(=O)N1CCC[C@H]1C(=O)N[C@@H](CCCCN)C(=O)N[C@@H](Cc1c[nH]cn1)C(=O)N1CCC[C@H]1C(=O)N[C@@H](CCCCN)C(=O)N[C@@H](CO)C(=O)N[C@@H](Cc1ccccc1)C(=O)O)OC(=O)CCCCCCCCCCCCCCC (stereo partly drawn) | LC-MS/MS | naive mouse, plasma | subcutaneous, 0.4 to 4.0 mg/kg | ~3 h |
| Cc1cc(NC(=O)[C@H](O)c2cc(F)cc(F)c2)ccc1-c1cnc(N)c(C(=O)NC(C)C)c1 | – | athymic nude mouse, female, plasma | oral, 3 to 100 mg/kg | 2.22 h |
| CN(C(=O)c1ccn2ncc(-c3ccc(C(N)=O)cc3)c2c1)c1ccc(C#N)cn1 | – | CD-1 mouse, Wistar rat, rhesus monkey, plasma | intravenous | 1 to 4 h |
| Clc1ccc(C(c2c[nH]c3ccccc23)c2c[nH]c3ccccc23)cc1 | – | mouse C57BL/6 male, plasma | oral, 25 mg/kg | 4.15 ± 0.383 h |
| COc1cc(/C=C/C(=O)NCCn2c(C)cc3ccccc32)cc(OC)c1OC | – | mouse, plasma | intraperitoneal, 5 mg/kg | 0.6 h |
| NC(=O)c1ccc(C(=O)NOCc2ccc(Sc3cccc(Cl)c3)c(C(F)(F)F)c2)cc1 | – | male ICR mouse, plasma | oral, 60 mg/kg | 0.58 h |
| Cc1cccc(O[C@H]2CCC[C@@H](C(C)CNCc3ccncc3)C2)c1 (relative stereo) | – | C57BL/6 mouse female, brain | oral, 25 mg/kg | 6.77 h |
| COc1cccc2c1C(=O)c1c(O)c3c(c(O)c1C2=O)CC(O)(C(=O)CO)CC3OC1CC(NC(=O)C[C@H](N)C(=O)O)C(O)C(C)O1 (stereo partly drawn) | – | healthy mouse, plasma | intravenous, 5 mg/kg | 0.819 h |

Repeated from above:
| Compound | assay | test system | conditions | half-life |
| --- | --- | --- | --- | --- |
| Cc1cc2c(c(=O)o1)C=C1CCC(C(C)CNCc3ccc(O)cc3)CC1O2 (stereo not drawn) | – | mouse, plasma | oral, dose not given | 2.67 h |
| CCCCCCCCCCCCCCCC(=O)OCC(CSC[C@H](N)C(=O)NCC(=O)N[C@@H](CC(=O)O)C(=O)N1CCC[C@H]1C(=O)N[C@@H](CCCCN)C(=O)N[C@@H](Cc1c[nH]cn1)C(=O)N1CCC[C@H]1C(=O)N[C@@H](CCCCN)C(=O)N[C@@H](CO)C(=O)N[C@@H](Cc1ccccc1)C(=O)O)OC(=O)CCCCCCCCCCCCCCC (stereo partly drawn) | LC-MS/MS | naive mouse, plasma | subcutaneous, 0.4 to 4.0 mg/kg | ~3 h |
